Measurements from different studies.
Each numbered part is a random draw from the data of one study; scales do not carry over between parts.

Block 1
Target: RNA binding protein fox-1 homolog 2, RRM domain, GST-SBP tag (RBFOX2, Homo sapiens, UniProt O43251-10, residues 100-194)
Method: RNA Bind-n-Seq
Molecule type: RNA
Sample: in vitro
Tested at: 365 nM
Notes: natural RNA segment, single round, ends assumed
Relative to: no-protein control
Reading: higher = stronger binding
Construct (chain): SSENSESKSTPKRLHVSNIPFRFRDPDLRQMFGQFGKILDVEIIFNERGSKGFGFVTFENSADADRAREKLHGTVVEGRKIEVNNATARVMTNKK
Sequence	RBNS enrichment (R)
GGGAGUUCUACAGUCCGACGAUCACAAGAGAUCCUUUUCUCUUUCCAAACAGCUUUGCACAAUCUAGAAAUUCAGUGGGUUUUUUUUUUUUUUUCAAAUAAAAAACUAGUUAGAUAACUUUACAAAUUAGGUCUGGAAUUCUCGGGUGCCAA	0.761
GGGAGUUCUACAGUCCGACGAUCGUAAAUUUGAAGUCAUUGUUAUAAAAUAAUAAAGUGGAGAUUACUUAAGUAUUUAAAUUAUGAAAGAAUAAUGCAGACUUUUUAUUGUUUCUUAACUGACUAGAAAGAGCUGGAAUUCUCGGGUGCCAA	0.632
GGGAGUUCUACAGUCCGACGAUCUUUUUGGCCCCUAUUGAGGAUGAAAUGUCUCUCAUUUAGUAUAAACAGUAACAGCCCACGGCAGUGUGACCUUCUAAACUUCAGCGAAGUCACUGGUGGCUUUAAAUAACUGGAAUUCUCGGGUGCCAA	0.45
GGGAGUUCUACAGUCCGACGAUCUGUGGUCUGACUCUAUGAUCGAUCACAGUGACUUAGAUUCAGGAAAGAACAUUAACGUCACAAGUUCUAAGUAGUUUUCACAGCAAAGAAUAUUUGAUAAUGGUUGCACUUGGAAUUCUCGGGUGCCAA	0.388
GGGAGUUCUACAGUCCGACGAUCUGCAGCCGAGGGGUAAAGAGCCCUCUGGUUCAUUGCCUGAUCGGCUUUGAGAGAGGGUUUGGAGGGCAAGGGGCUGCAUUCCUCUGAGGGACUUGGCCUGAGGCCUUUCGUGGAAUUCUCGGGUGCCAA	0.372
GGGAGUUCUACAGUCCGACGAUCAGUCCUUGUAGCCCAAUGGGAAUUGAUUCUGUUUAUUGUCUGUACCAUUUUGCUACCAGUUACAUUGAACUGCUUUAAAAUAAAUAAUAAAAUUAUUUCUAAUGAUGAAAUGGAAUUCUCGGGUGCCAA	0.611
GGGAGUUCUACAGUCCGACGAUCGAUUAUUCCAUAUUAUUAAAGAAAAAAAAAGCCAAAAAACUGCAAGCCACCUCUCUCUUUCUUGCUAUCUUUUUUUUCUCUCUCUCUCUAUCUCAAGUUUGUGCAGGGAGUGGAAUUCUCGGGUGCCAA	0.681
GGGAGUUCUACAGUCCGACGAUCAGCGAGUCCAGCAGGGAGUCCAGCAACGAGGAUGAGGGCAGCAGCUCCGAGGCCGACGAGAUGGCCAAGGCGCUGGAGGCGGAGCUCAACGACCUCAUGUGAGCGCGGGCUGGAAUUCUCGGGUGCCAA	0.4
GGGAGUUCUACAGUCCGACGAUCCAGCAGCCAGGAGGACCUGACCCAGCAGUUCUUUACUGGCCCCUUUGUAGGGCCUUGCUGCCAGGGGGCAGGGAUGCUUUCCAGCCUGCAGCAACAGAACACUUGACCUUUGGAAUUCUCGGGUGCCAA	0.227
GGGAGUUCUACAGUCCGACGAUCCGUGGGACCCAUGACCAAAGCCCAGGAUGGCUUGGUGGGAGUGUCCCUGCUGCAUCUGCAUGAAGCCCCUGCUUUUUAGGCCUCACUCCCAUCAGAACCCUGCCUGCCCAUGGAAUUCUCGGGUGCCAA	17.7
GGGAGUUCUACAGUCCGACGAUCGGUCUUUUGUUCAAUAUUUUACAAUUUAGACUUCUGUCCAACACUAAUUUAUUUUGUCUUGAGUUGUACUGCGAGAGAAGAAUAUGGGGUUUUGUAUGCCCGUGUUCCUUUGGAAUUCUCGGGUGCCAA	0.717
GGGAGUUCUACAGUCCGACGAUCUUUUUAAAAAAUCUUUUCCAUCGUGUUAAAAAGAAAAUUAGCUAUUAGGAGAUAUUAAAAGAUUGAUGUCUUAGAAGGACAGGGUUAAAACCUUCUGUAAUAUAUUUAAAUGGAAUUCUCGGGUGCCAA	0.653

Block 2
Target: Sal-like protein 4, full length isoform A (SALL4, Homo sapiens, UniProt Q9UJQ4, residues 1-1053)
Chain of UniProt Q9UJQ4 (whole entry, looked up): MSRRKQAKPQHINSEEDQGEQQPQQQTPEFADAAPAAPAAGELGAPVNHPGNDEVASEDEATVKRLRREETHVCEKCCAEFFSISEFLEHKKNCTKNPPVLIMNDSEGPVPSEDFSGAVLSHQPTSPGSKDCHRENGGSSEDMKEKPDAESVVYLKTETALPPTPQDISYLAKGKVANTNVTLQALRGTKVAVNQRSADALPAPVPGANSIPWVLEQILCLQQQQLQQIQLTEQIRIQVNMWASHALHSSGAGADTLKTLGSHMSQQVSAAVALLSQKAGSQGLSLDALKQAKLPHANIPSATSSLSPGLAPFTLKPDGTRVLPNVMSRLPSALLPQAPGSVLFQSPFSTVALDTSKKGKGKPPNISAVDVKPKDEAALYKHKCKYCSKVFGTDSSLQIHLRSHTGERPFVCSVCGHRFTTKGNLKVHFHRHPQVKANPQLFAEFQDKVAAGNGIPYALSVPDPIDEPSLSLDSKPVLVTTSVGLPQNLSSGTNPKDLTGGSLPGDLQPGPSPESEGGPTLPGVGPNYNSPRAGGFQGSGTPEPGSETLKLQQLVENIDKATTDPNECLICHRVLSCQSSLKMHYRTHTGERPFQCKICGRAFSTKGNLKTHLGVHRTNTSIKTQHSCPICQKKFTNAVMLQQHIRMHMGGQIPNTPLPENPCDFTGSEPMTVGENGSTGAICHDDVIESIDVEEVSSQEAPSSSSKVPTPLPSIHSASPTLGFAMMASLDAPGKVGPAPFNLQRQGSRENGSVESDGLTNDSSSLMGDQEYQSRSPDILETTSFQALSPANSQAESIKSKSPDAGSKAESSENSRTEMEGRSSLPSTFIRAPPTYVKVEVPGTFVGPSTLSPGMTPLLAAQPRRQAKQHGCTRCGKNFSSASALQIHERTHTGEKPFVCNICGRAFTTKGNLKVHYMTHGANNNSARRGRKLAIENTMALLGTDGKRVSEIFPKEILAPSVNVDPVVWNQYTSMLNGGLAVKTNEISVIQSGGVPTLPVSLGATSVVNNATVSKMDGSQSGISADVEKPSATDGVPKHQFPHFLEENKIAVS
Method: universal PBM
Molecule type: double-stranded DNA, one strand shown
Sample: in vitro
Tested at: 600 nM
Notes: 8-mer, flanks averaged, mean of replicates
Reading: higher = stronger binding
Sequence	E-score
TAGCCAGA	-0.047
CTATCTGC	-0.186
ATGCCTTA	0.062
GAGATCAC	-0.111
AATAATGT	0.335
AGTTCGGA	-0.14
AGTGTACA	0.109
TGTGCGAA	-0.0522
TATGGTCA	0.178
GTGACACA	0.0775
ATCTCAAC	0.14
CGCGGCCA	-0.282
ATGTTAAC	0.261
ATTACCGG	-0.07
GGGCCAGA	-0.375
CACGTCGC	-0.236
AAGCAACG	-0.00673
TGTGCTAA	0.0526
GTTTACTA	0.22
CAGAATCC	-0.214
TATGTCCA	0.0389
ACCTGCGC	-0.196
CGTGGTCC	-0.31
CGACGACA	-0.11
CCTGTATC	0.0991

Block 3
Target: Max-binding protein MNT, bHLH-zipper, MAX partner unstated (MNT, Homo sapiens, UniProt Q99583, residues 220-300)
Method: protein-binding microarray
Molecule type: double-stranded DNA, one strand shown
Sample: in vitro
Tested at: not given
Notes: k-mer, scored over probes, only values ≥0.25
Reading: higher = stronger binding
Construct (chain): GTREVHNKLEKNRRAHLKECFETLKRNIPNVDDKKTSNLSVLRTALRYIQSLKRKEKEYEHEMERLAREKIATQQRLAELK
Sequence	E-score
ACCCCACC	0.296
CATGCTGC	0.413
CACCTGCC	0.26
ACCCACCT	0.295
CCCGTCCC	0.256
ATGTGGTA	0.282
ACTGCGTG	0.321
CCCATGGG	0.279
CCCCGTGA	0.352
GACACGCA	0.304
CCATGCGA	0.361
CACGCGAG	0.407
CATGCGAA	0.275
GAGCATGA	0.319
AACGTGTA	0.42
CGTGATAA	0.295
ACGAGGCG	0.362
CATGGTGC	0.36
CGTGGTAC	0.371
ACACCTGT	0.274
CATACATG	0.252
CACGCGGG	0.455
GTCGCCAC	0.292

Block 4
Target: Histone acetyltransferase KAT6A, winged helix 2, GST fusion (KAT6A, Homo sapiens, UniProt Q92794, residues 85-181)
Method: protein binding microarray
Molecule type: double-stranded DNA, one strand shown
Sample: in vitro
Tested at: not given
Notes: 8-mer, flanks averaged, mean of 2 arrays, mostly near background
Relative to: not given
Reading: higher = stronger binding
Residues (chain): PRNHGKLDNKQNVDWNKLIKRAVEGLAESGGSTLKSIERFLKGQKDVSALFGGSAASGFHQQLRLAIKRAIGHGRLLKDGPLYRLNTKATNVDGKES
Sequence	E-score
CAAAAGAC	0.00198
AGAAGTAT	0.02
CAATCTGC	-0.0212
GACTTAGA	-0.124
ACGTAACT	-0.311
GGCTTACC	0.0412
CGCCGTTA	0.15
ATGACGGA	0.0902
GGCACCCA	0.142
GAATAAGC	-0.0038
ACGTTAAC	-0.143
CGAAGCAC	0.0769
CTTGTTAC	-0.0945
AAATAGTG	0.0914
AATATTCA	-0.0961
ACAAATAG	-0.116
CAGTCTGG	-0.0208
ACTCTGGC	0.1
AGACCTCA	-0.0117
AGCATAAG	0.0463
GTACGTAC	-0.11

Excerpt of the above (block 4):
Sequence	E-score
GACTTAGA	-0.124
ACGTAACT	-0.311
GGCTTACC	0.0412
CGCCGTTA	0.15
ATGACGGA	0.0902
GGCACCCA	0.142
GAATAAGC	-0.0038
ACGTTAAC	-0.143
CGAAGCAC	0.0769
CTTGTTAC	-0.0945
